Assay results from different studies.
Compare with care: the assays were run in different laboratories. Values joined by “and” are separate records of one study, mostly repeats; a detail may differ. ± marks the error that the study gave.

| SMILES | cell line | test | setting | scale | measurement | result |
| --- | --- | --- | --- | --- | --- | --- |
| COCc1cc2c(cn1)CN(C(=O)Nc1nc(-c3ccc(F)cc3)ccc1N)C2 | human bone marrow erythroid progenitors | – | 10 µM, 14 days | baseline: untreated | colony formation | 23% |
| Cc1cc(C)cc(C(=O)Nc2cccc(S(N)(=O)=O)c2)c1 | HEK293T | cell viability, MTT | 100 µM, 24 to 48 h | – | cytotoxicity | 14 ± 0.01% |
| CC/C(=C(\c1ccc(O)cc1)c1ccc(OCCN(C)CCOCCOCCOCCOCCOCCOCCOCCOCCOCCOCCOCCN(C)CCOc2ccc(/C(=C(/CC)c3ccccc3)c3ccc(O)cc3)cc2)cc1)c1ccccc1 | U2OS transfected with ERα | – | 10 µM, cytotoxicity | – | cell density | 8% |
| CC(=O)OC[C@H]1O[C@@H](Sc2sc(C(=O)c3ccc(Br)cc3)c(N)c2-c2nc3ccccc3s2)[C@H](OC(C)=O)[C@@H](OC(C)=O)[C@@H]1OC(C)=O | Huh7.5, uninfected | – | 72 h | – | non-toxic concentration | 100 µg/mL |
| C[C@H](NP(=O)(O)OC[C@H]1O[C@@](C#N)(c2ccc3c(N)ncnn23)[C@H](O)[C@@H]1O)C(=O)O | primary human hepatocytes | measured: cellular ATP | 3 days | – | CC50 | > 100 µM |
| CCCc1cc2cc(-n3nc(C)c4c3CC(C)(C)CC4=O)cc(N[C@H]3CCOC3)c2c(=O)[nH]1 | hiPSC cardiomyocytes | – | 50 µM, 24 h | – | contraction amplitude | increased |
| CS[Se][C@@H]1O[C@H](COC(C)=O)[C@@H](OC(C)=O)[C@H](OC(C)=O)[C@H]1NC(C)=O | J774 | cell growth or viability, WST-1 | 24 h | – | CC50 | 2.8 µM |
| O=S(=O)(O)CC1CSSCC(CS(=O)(=O)O)SS1 (centres unmarked) | OECM1 | – | 254 µM, 4 d | – | viability | 32.5% |
| CC/C(=C(\c1ccc(O)cc1)c1ccc(OCCN(C)CCOCCN(C)CCOc2ccc(/C(=C(/CC)c3ccccc3)c3ccc(O)cc3)cc2)cc1)c1ccccc1 | U2OS transfected with ERα | – | 10 µM, cytotoxicity | – | cell density | 81% |
| CC(=O)NCCN(CCC(=O)NCCN(CCC(=O)NCCN(CCC(=O)NCCC(N)=O)C(=O)[C@@H](N)Cc1ccccc1)C(=O)[C@@H](N)CCCNC(=N)N)C(=O)[C@@H](N)Cc1ccccc1 | human PBMC | cell growth or viability, MTT | – | – | CC50 | > 1000 µM |
| [99Tc+].[C-]#[N+]CC(C)(C)OC.[C-]#[N+]CC(C)(C)OC.[C-]#[N+]CC(C)(C)OC.[C-]#[N+]CC(C)(C)OC.[C-]#[N+]CC(C)(C)OC.[C-]#[N+]CC(C)(C)OC | human sandwich-cultured hepatocytes | – | 20 min, culture day 7 | baseline: preloaded amount | canalicular efflux | 25.4 ± 6% |
| CCCC[C@H](NC(=O)[C@H](CC(=O)O)NC(=O)[C@H](CC(=O)O)NC(=O)[C@H](CCC(=O)O)NC(=O)[C@H](Cc1ccc(O)cc1)NC(=O)[C@H](CC(=O)O)NC(=O)[C@H](CC(=O)O)NC(=O)[C@H](CCC(=O)O)NC(=O)[C@H](CC(C)C)NC(=O)[C@H](CCC(=O)O)NC(=O)[C@H](CCC(=O)O)NC(=O)c1ccc2c(c1)C1(OC2=O)c2ccc(O)cc2Oc2cc(O)ccc21)C(=O)N[C@@H](CCC(=O)O)C(=O)N[C@@H](CCC(=O)O)C(N)=O | A-431 cells | microinjection, single-cell CE | – | – | median degradation rate | 39 fmol/min/mg |
| COc1ccc2c(c1)c1c(C)c3cnccc3c(C)c1n2CCCN1CCN(C)CC1 | SK-N-SH | cell growth | – | – | IC50 | 1.2 ± 0.8 µM |
| COc1ccc(-c2ccc3oc(-c4ccc(OC)cc4)c(C#CC4(O)CCCCC4)c3c2)cc1 | primary human hepatocytes | – | – | – | CC50 | > 100 µM |
| CC/C(=C(\c1ccc(O)cc1)c1ccc(OCCN(C)CCOCCOCCOCCOCCN(C)CCOc2ccc(/C(=C(/CC)c3ccccc3)c3ccc(O)cc3)cc2)cc1)c1ccccc1 | U2OS transfected with ERα | – | 10 µM, cytotoxicity | – | cell density | 61% |
| COc1cc2c(C=C3C(=O)Nc4ccccc43)c[nH]c2cc1C | NCI-60 panel | – | – | – | CC50 | 55 µM |
| C[C@H](CCC=O)[C@@H]1CC[C@]2(C)C3=C(CC[C@@]12C)[C@@]1(C)CC[C@H](O)C(C)(C)[C@@H]1CC3 | PC-3 | cell growth or viability, SRB | 50 µM | – | inhibition | 87.2% |
| O=C(OCc1cccc(O)c1O)c1ccc(O)c(CO)c1 | human PBMC | – | 20 µM, 48 h | – | cytotoxicity | not toxic |
| CC(=O)OC[C@H]1O[C@@H]([Se]Sc2ccccc2)[C@H](OC(C)=O)[C@@H](OC(C)=O)[C@@H]1OC(C)=O | J774 | cell growth or viability, WST-1 | 24 h | – | CC50 | 5.1 µM |

| SMILES | cell line | test | setting | scale | measurement | result |
| --- | --- | --- | --- | --- | --- | --- |
| COc1ccc(-c2oc3ccc(-c4cc(OC)c(OC)c(OC)c4)cc3c2C#CC(C)(C)O)cc1 | primary human hepatocytes | – | – | – | CC50 | > 31.6 µM |
| CCCCn1cc(C(=O)O)c(=O)c2cc(F)c(Nc3cc(OC)c(OC)c(OC)c3)c([N+](=O)[O-])c21 | PC-3 | cell growth or viability, SRB | – | – | IC50 | < 50 µM and 49.6 µM |
| CCOc1c(C(C)(C)O)sc2cnc(Nc3ccc(N4CCC(N5CC6(COC6)C5)CC4)cc3OC)nc12 | human atrial cardiomyocytes | whole-cell patch clamp, measured: APD50 and APD80 | 1, 3 and 10 µM | baseline: vehicle | action potential duration | no effect |
| O=c1c(-c2nc3ccccc3s2)cc2c(n1NS(=O)(=O)c1ccc(Cl)cc1)CCCCCC2 | Huh7.5, uninfected | trypan blue exclusion | – | – | CC50 | 310 µg/mL |
| CC/C(=C(\c1ccc(O)cc1)c1ccc(OCCN(C)CCOCCOCCOCCOCCOCCOCCOCCN(C)CCOc2ccc(/C(=C(/CC)c3ccccc3)c3ccc(O)cc3)cc2)cc1)c1ccccc1 | U2OS transfected with ERα | – | 10 µM, cytotoxicity | – | cell density | 10% |
| CC(C)=CCCC(C)C1CCC2(C)C3=C(CCC12C)C1(C)CCC(=O)C(C)(C)C1CC3 (centres unmarked) | COS-7 | cell growth or viability, SRB | 50 µM | – | inhibition | 17.2% |
| N#Cc1cc(C(=O)OCC[18F])c(C(F)(F)F)nc1N1CCN(C(=O)Cc2ccccc2)CC1 | bEnd.3 monolayer transwell | – | concentration not given, with: verapamil 1.0 µg | – | permeability | 21.5% |
| CC(=O)Nc1ccc(C(=O)Nc2cc(-c3cccs3)ccc2N)cc1 | human bone marrow erythroid progenitors | – | 10 µM, 14 days | baseline: untreated | colony formation | 0% |
| COc1cc(/C=C/C(C)=NO)ccc1OCC(=O)Nc1ccccc1Cl (stereo in doubt) | SH-SY5Y | MTT | concentration not given | – | cytotoxicity | toxic |
| CCCCn1cc(C(=O)O)c(=O)c2cc(F)c(Nc3cccc(OC)c3)c([N+](=O)[O-])c21 | PC-3 | cell growth, sulforhodamine B | 72 h | – | IC50 | 130 ± 13.1 µg/mL |
| Cc1ncc2c(n1)CN(C(=O)Nc1nc(-c3cccs3)ccc1N)C2 | human bone marrow erythroid progenitors | – | 10 µM, 14 days | baseline: untreated | colony formation | 27% |
| CC(=O)OC[C@H]1O[C@@H]([Se]c2ccc([N+](=O)[O-])cc2[N+](=O)[O-])[C@H](OC(C)=O)[C@@H](OC(C)=O)[C@@H]1OC(C)=O | J774 | cell growth or viability, WST-1 | 24 h | – | CC50 | 19.3 µM |
| N=C(N)NCCC[C@@H]1NC(=O)[C@H](CCCNC(=N)N)NC(=O)[C@H](CCCNC(=N)N)NC(=O)[C@H](Cc2c[nH]c3ccccc23)NC(=O)[C@H](Cc2c[nH]c3ccccc23)NC(=O)[C@H](Cc2c[nH]c3ccccc23)NC(=O)[C@H](Cc2c[nH]c3ccccc23)NC(=O)[C@H](CCCNC(=N)N)NC1=O | SK-OV-3 | MTS | 15 µM, 24 h | – | cytotoxicity | ≤ 5% |
| CC(=O)N[C@H](C(=O)N[C@H](C(=O)N[C@@H](CCCNC(=N)N)C(=O)N1Cc2ccccc2C[C@H]1C(=O)N[C@@H](Cc1ccccc1)C(N)=O)C1CCCCC1)C(C)C | human PBMC | Bio-Plex multiplex, measured: Eotaxin | 250 µg/mL, 24 h | – | cytokine level | < 15.7 pg/mL |
| CC(C)CCC[C@@H](C)[C@H]1CCC([C@@H]2CC[C@H]3C[C@H](O)CC[C@]3(C)[C@@H]2O)[C@]1(C)CC(=O)O (some centres unmarked) | HEK293T | CellTiter-Blue | concentration not given | – | viability | 27.2% |
| CC(=O)OC[C@H]1O[C@@H]([Se]SC[C@H]2O[C@@H]3OC(C)(C)O[C@@H]3[C@H]3OC(C)(C)O[C@H]32)[C@H](OC(C)=O)[C@@H](OC(C)=O)[C@@H]1OC(C)=O | J774 | cell growth or viability, WST-1 | 24 h | – | CC50 | 13.5 µM |
| COCCOCCOCCOCCOCCOCCOCCOCCOCCOCCOCCOCCOCCOCCOCCOCCOCCOCCOCCOCCOCCOCCNC(=O)CCC1(Cc2ccccc2)c2ccccc2-c2ccc(-c3sc(-c4c5c(c(-c6sc(-c7ccc8c(c7)C(CCC(=O)NCCOCCOCCOCCOCCOCCOCCOCCOCCOCCOCCOCCOCCOCCOCCOCCOCCOCCOCCOCCOCCOCCOC)(Cc7ccccc7)c7ccccc7-8)c7c6OCCO7)c6nsnc46)N=S=N5)c4c3OCCO4)cc21 (centres unmarked) | mouse erythrocytes | – | up to 100 µM | – | haemolysis | < 5% |
| CC(=O)N[C@@H]1[C@@H](OC(C)=O)[C@H](OC(C)=O)[C@@H](COC(C)=O)O[C@H]1[Se]Sc1ccccc1 | J774 | cell growth or viability, WST-1 | 24 h | – | CC50 | 28.7 µM |
| CN1/C(=C/C=C/c2cc(-c3ccccc3)cc(-c3ccccc3)[o+]2)C(C)(C)c2ccccc21 | J774 | cell growth or viability, MTT | 6 h | – | CC50 | 18.7 µM |

Excerpt of the above:
| SMILES | cell line | test | setting | scale | measurement | result |
| --- | --- | --- | --- | --- | --- | --- |
| COc1ccc2c(c1)c1c(C)c3cnccc3c(C)c1n2CCCN1CCN(C)CC1 | SK-N-SH | cell growth | – | – | IC50 | 1.2 ± 0.8 µM |
| CN1/C(=C/C=C/c2cc(-c3ccccc3)cc(-c3ccccc3)[o+]2)C(C)(C)c2ccccc21 | J774 | cell growth or viability, MTT | 6 h | – | CC50 | 18.7 µM |
| COc1ccc(-c2ccc3oc(-c4ccc(OC)cc4)c(C#CC4(O)CCCCC4)c3c2)cc1 | primary human hepatocytes | – | – | – | CC50 | > 100 µM |
